Experimental data of several laboratories.
Every numbered part comes from another study and shows a few of its results, in no order. Changes are numbered by the printed parent chain.

Study 1
Target: Prothrombin, mature alpha-thrombin (F2, Homo sapiens, UniProt P00734)
Technique: aptamer microarray, sandwich
Molecule type: DNA with 2'F-ANA
Sample: in vitro
Tested at: 200 nM
Notes: whole 15-mer aptamer, many near background
Added: Cy3 exosite-II aptamer, 400 nM
Direction: higher = stronger binding
Endpoint: mean fluorescence intensity
Oligonucleotide: GGTTGGTGTGGTTGG
2'F-ANA at 1 4 5 6 7 9 10 13: 45.6 a.u.
2'F-ANA at 2 3 4 5 6 7 8 11 15: 87 a.u.
2'F-ANA at 7 8 9 12 14 15: 274 a.u.
2'F-ANA at 2 3 5 7 11 13 14: 78.1 a.u.
2'F-ANA at 1 4 5 6 7 10 11 12 13 15: 46.8 a.u.
2'F-ANA at 1 4 5 6 8 9 10 15: 47.5 a.u.
2'F-ANA at 1 3 4 5 6 7 8 9 10 11 12 15: 52.2 a.u.

Study 2
Target: Interferon regulatory factor 7, full length, phosphomimetic (IRF7, Homo sapiens, UniProt Q92985, residues 1-503, S101K/S471D/S472D/S475D/S476D/S477D/S483D/S484D/S487D)
Sequence of UniProt Q92985 (whole entry, unmodified, looked up): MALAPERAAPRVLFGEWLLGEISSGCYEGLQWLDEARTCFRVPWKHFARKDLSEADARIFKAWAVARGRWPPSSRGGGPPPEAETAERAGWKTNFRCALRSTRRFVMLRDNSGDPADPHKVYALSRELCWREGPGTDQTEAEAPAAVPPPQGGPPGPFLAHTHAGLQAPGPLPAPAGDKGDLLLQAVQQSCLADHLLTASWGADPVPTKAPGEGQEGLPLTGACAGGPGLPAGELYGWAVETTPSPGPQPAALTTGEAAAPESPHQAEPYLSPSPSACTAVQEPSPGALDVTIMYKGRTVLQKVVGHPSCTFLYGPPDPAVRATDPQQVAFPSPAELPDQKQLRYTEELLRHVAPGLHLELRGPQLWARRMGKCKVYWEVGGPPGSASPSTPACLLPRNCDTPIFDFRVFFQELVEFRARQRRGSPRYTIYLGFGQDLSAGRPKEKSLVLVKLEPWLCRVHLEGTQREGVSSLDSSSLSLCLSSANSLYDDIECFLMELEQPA
Technique: protein-binding microarray
Molecule type: double-stranded DNA, one strand shown
Sample: in vitro
Tested at: 250 nM
Notes: 60-bp whole probe
Added: salmon DNA 0.4 mg/ml
Reference: random background probes
Direction: higher = stronger binding
Endpoint: log fluorescence
All sequences stand within: GCCTAGCAC … GTCTTGATTCGCTTGACGCTGCTG
GACGGACTGGGTTTCGGGGCGTGCTAG: 0.924 z-score
TTTGGACTGCTTCTCCTTTAGTGCTAG: 0.00118 z-score
GCCGATTTCAGTTTCGAGACGTGCTAG: 5.16 z-score
AGTTCTCTGAAGACTCTCTTGGTGCTA: 0.525 z-score
TTAGGACTACTTCTCCTTTAGTGCTAG: 0.555 z-score
GACGATTTCAGACTCGAGACGTGCTAG: 0.649 z-score
GACGGTTTCTGGTTTCGGGACGTGCTA: 7.82 z-score

Study 3
Target: CCNE1, cyclin fold, Cln2 fusion (human)
Technique: yeast growth competition, sequencing
Sample: yeast
Notes: strong parent motif
Reference: not given
Direction: higher = stronger binding
Endpoint: normalised enrichment score
Starting sequence: BRCA2 docking peptide (human); PSIKRNLLNEFDR; partner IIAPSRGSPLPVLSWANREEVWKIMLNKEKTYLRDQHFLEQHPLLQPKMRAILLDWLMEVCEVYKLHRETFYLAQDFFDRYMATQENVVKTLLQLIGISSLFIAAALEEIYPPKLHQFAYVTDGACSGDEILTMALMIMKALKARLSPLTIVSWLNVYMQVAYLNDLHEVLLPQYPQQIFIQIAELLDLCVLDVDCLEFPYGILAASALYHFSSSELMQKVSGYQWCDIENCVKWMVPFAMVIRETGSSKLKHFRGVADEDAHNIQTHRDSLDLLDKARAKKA
PSIKRNLLYEFDR [N9Y]: 2.85
PSYKRNLLNEFDR [I3Y]: 5.39
PSIKRNLLEEFDR [N9E]: 1.77
PSIKRNLLNEFDQ [R13Q]: 2.46
PSAKRNLLNEFDR [I3A]: 5.37
PSIHRNLLNEFDR [K4H]: 0.442
PSIKRNLLNEFQR [D12Q]: 1.78

Single results of other studies
PhoQ, residues 284 288 289 292 302 303 TLSLKA  fold induction (PhoP, residues 12 14 15 18 19 NQAHL (Escherichia coli, UniProt P23836); Sort-seq, refers to: YFP reporter; E. coli; PhoQ-PhoP variant library, added: 10 µM Mg2+; reference: high Mg2+ state, higher = stronger signaling): 21.7

For quick reference, copied from above (study 3):
PSIKRNLLYEFDR [N9Y]: 2.85
